Published values collected from several papers.
Each line is one published result; not all experiments were run side by side. ± gives the spread as reported. Converted amounts (≈) assume the structure as drawn.

For `O=C(CCCC(=O)Nc1ccc(Br)cc1)N/N=C/c1c2ccccc2cc2ccccc12`, the MIC50 was 15 µM (≈ 7.33 µg/mL) (Bacillus anthracis; Sterne).
The MIC of `CC[C@H](C)[C@H](NC(=O)[C@H](Cc1c[nH]c2ccccc12)NC(=O)[C@H](CCCCN)NC(=O)[C@H](CCCCN)NC(=O)[C@H](CC(C)C)NC(=O)[C@H](Cc1c[nH]c2ccccc12)NC(=O)[C@H](CCCCN)NC(=O)[C@@H](N)Cc1c[nH]c2ccccc12)C(=O)N[C@@H](CCCCN)C(N)=O` is reported as 10 µM (≈ 13.1 µg/mL) (Bacillus anthracis; 34F2 Sterne, LB medium; 24 h, 37 °C).
`CC(=O)N1C[C@@H](COP(=O)(N(C)C)N2C[C@@H](COP(=O)(N(C)C)N3C[C@@H](COP(=O)(N(C)C)N4C[C@@H](COP(=O)(N(C)C)N5C[C@@H](COP(=O)(N(C)C)N6C[C@@H](COP(=O)(N(C)C)N7C[C@@H](COP(=O)(N(C)C)N8C[C@@H](COP(=O)(N(C)C)N9C[C@@H](COP(=O)(N(C)C)N%10C[C@@H](COP(=O)(N(C)C)N%11C[C@@H](COP(=O)(N(C)C)N%12C[C@@H](COP(=O)(N(C)C)N%13C[C@@H](COP(=O)(N(C)C)N%14C[C@@H](COP(=O)(N(C)C)N%15C[C@@H](COP(=O)(N(C)C)N%16C[C@@H](COP(=O)(N(C)C)N%17C[C@@H](COP(=O)(N(C)C)N%18C[C@@H](COP(=O)(N(C)C)N%19C[C@@H](COP(=O)(N(C)C)N%20C[C@@H](COP(=O)(N(C)C)N%21C[C@@H](COP(=O)(N(C)C)N%22C[C@@H](COP(=O)(N(C)C)N%23C[C@@H](COP(=O)(N(C)C)N%24CCN(C(=O)CCCN%25C(=O)CC(SC[C@H](NC(=O)[C@H](CCCNC(=N)N)NC(=O)[C@H](CCCNC(=N)N)NC(=O)[C@H](CCCNC(=N)N)NC(=O)[C@H](CCCNC(=N)N)NC(=O)[C@H](Cc%26ccccc%26)NC(=O)[C@H](Cc%26ccccc%26)NC(=O)[C@H](CCCNC(=N)N)NC(=O)[C@H](CCCNC(=N)N)NC(=O)[C@H](CCCNC(=N)N)NC(=O)[C@H](CCCNC(=N)N)NC(=O)[C@@H](N)CCCNC(=N)N)C(N)=O)C%25=O)CC%24)O[C@@H](n%24cnc%25c(=O)[nH]c(N)nc%25%24)C%23)O[C@@H](n%23cc(C)c(=O)[nH]c%23=O)C%22)O[C@@H](n%22ccc(N)nc%22=O)C%21)O[C@@H](n%21cnc%22c(N)ncnc%22%21)C%20)O[C@@H](n%20cc(C)c(=O)[nH]c%20=O)C%19)O[C@@H](n%19ccc(N)nc%19=O)C%18)O[C@@H](n%18cc(C)c(=O)[nH]c%18=O)C%17)O[C@@H](n%17cc(C)c(=O)[nH]c%17=O)C%16)O[C@@H](n%16cnc%17c(=O)[nH]c(N)nc%17%16)C%15)O[C@@H](n%15ccc(N)nc%15=O)C%14)O[C@@H](n%14cnc%15c(=O)[nH]c(N)nc%15%14)C%13)O[C@@H](n%13ccc(N)nc%13=O)C%12)O[C@@H](n%12ccc(N)nc%12=O)C%11)O[C@@H](n%11cnc%12c(N)ncnc%12%11)C%10)O[C@@H](n%10cc(C)c(=O)[nH]c%10=O)C9)O[C@@H](n9cc(C)c(=O)[nH]c9=O)C8)O[C@@H](n8cc(C)c(=O)[nH]c8=O)C7)O[C@@H](n7cc(C)c(=O)[nH]c7=O)C6)O[C@@H](n6cc(C)c(=O)[nH]c6=O)C5)O[C@@H](n5cnc6c(=O)[nH]c(N)nc65)C4)O[C@@H](n4cc(C)c(=O)[nH]c4=O)C3)O[C@@H](n3cnc4c(=O)[nH]c(N)nc43)C2)O[C@@H](n2cnc3c(=O)[nH]c(N)nc32)C1` (some centres unmarked): RTA-positive cells “decreased” (Kaposi's sarcoma-associated herpesvirus; immunofluorescence; BC1 cells, EBV co-infected; concentration not given, together with: TPA; reference: mock-treated).
For `C[C@H](NP(=O)(Nc1ccn([C@H]2CS[C@@H](CO)O2)c(=O)n1)N[C@@H](C)C(=O)OCc1ccccc1)C(=O)OCc1ccccc1`, the EC50 was 280 ± 170 nM (HIV-1; viral replication; CCRF-CEM, IIIB; 4 d).
For `O=c1nc(NO)ccn1[C@@H]1O[C@H](CO)[C@@H](O)[C@H]1O`, the passages tolerated was over 10 passages (Influenza A virus; viral replication; MDCK, A/WSN/33-nanoLuc or A/California/09; 1 and 2 µM, fixed-dose serial passaging).
`O=C(NN1C(=O)[C@@H]2[C@@H]3C=C[C@@H]([C@H]4C[C@@H]34)[C@@H]2C1=O)c1ccc(C(F)(F)F)cc1`: “lung viral titre reduction” 2.7 log (monkeypox virus; mice; oral, 50 mg/kg once daily; reference: vehicle).
`O=C(Nc1ccc([N+](=O)[O-])cc1)Nc1ccc(S(=O)(=O)Nc2ccc(Cl)c(Cl)c2)cc1` gave an MIC of 1.9 µM (≈ 0.915 µg/mL) (Bacillus anthracis; Sterne, LB medium).
With `CS(=O)(=O)NC(=O)NCc1cn(-c2ccc(Cl)cc2)nc1-c1ccncc1` the MIC was 0.5 µM (≈ 0.203 µg/mL) (Mycobacterium tuberculosis; OD600; cyd deletion mutant).
Under “EC50 fold change”, `Cc1cc(/C=C/C#N)cc(C)c1Oc1nc(NC2CCN(Cc3ccc(P(C)(C)=O)cc3)CC2)nc2ccsc12` is recorded as about 18000 fold (HIV-1; MT-4, F227L/V106A; reference: doravirine EC50 over cpd EC50).
With `CC[C@H](C)[C@H](NC(=O)[C@H](Cc1ccc(O)cc1)NC(=O)[C@H](CO)NC(=O)[C@H](CCC(=O)O)NC(=O)[C@H](CC(N)=O)NC(=O)[C@H](CC(C)C)NC(=O)[C@H](C)NC(=O)[C@H](CCCCN)NC(=O)[C@@H](NC(=O)[C@@H](NC(=O)[C@H](CCC(N)=O)NC(=O)[C@H](CCC(N)=O)NC(=O)[C@H](CC(C)C)NC(=O)[C@H](CO)NC(=O)[C@H](CC(C)C)NC(=O)[C@H](CCSC)NC(=O)[C@H](CCC(=O)O)NC(=O)[C@H](Cc1ccc(O)cc1)NC(=O)[C@@H](NC(=O)[C@H](CC(C)C)NC(=O)[C@H](CC(=O)O)NC(=O)[C@H](CC(C)C)NC(=O)[C@H](CC(C)C)NC(=O)[C@@H](NC(=O)[C@@H](NC(=O)[C@H](CC(N)=O)NC(=O)[C@@H](NC(=O)[C@H](CCC(N)=O)NC(=O)[C@@H](NC(=O)[C@H](CC(C)C)NC(=O)[C@@H](N)CO)[C@@H](C)O)[C@@H](C)CC)[C@@H](C)O)[C@@H](C)O)[C@@H](C)O)C(C)C)C(C)C)C(=O)N[C@@H](CC(=O)O)C(=O)N[C@@H](CC(C)C)C(=O)N[C@@H](CCCCN)C(=O)N[C@@H](CCC(=O)O)C(=O)N[C@@H](CC(C)C)C(=O)O` the IC50 was 13900 nM (MERS-CoV; viral replication, CPE, MTT; HFL lung fibroblasts).
`CSCC[C@@H]1NC(=O)[C@H](CC(C)C)NC(=O)[C@H](CCCNC(=N)N)NC(=O)[C@H](CO)NC(=O)[C@@H]2CSSC[C@@H]3NC(=O)[C@H](CO)NC(=O)CNC(=O)[C@H]([C@@H](C)O)NC(=O)[C@H](CSSC[C@H](N)C(=O)N[C@@H](CCCCN)C(=O)NCC(=O)N[C@@H](CCCCN)C(=O)NCC(=O)N[C@@H](C)C(=O)N[C@@H](CCCCN)C(=O)N2)NC(=O)[C@H](CSSC[C@@H](C(N)=O)NC(=O)[C@H](CCCCN)NC(=O)CNC(=O)[C@H](CO)NC(=O)[C@H](CCCNC(=N)N)NC3=O)NC(=O)[C@H](CC(=O)O)NC(=O)[C@H](Cc2ccc(O)cc2)NC1=O` has an antimicrobial activity of over 0.5 mM (Staphylococcus aureus, Pseudomonas aeruginosa, Escherichia coli; inactive up to this concentration).
`N=C(N)NCCC[C@H](NC(=O)[C@H](CCCNC(=N)N)NC(=O)[C@H](Cc1c[nH]c2ccccc12)NC(=O)[C@H](Cc1c[nH]c2ccccc12)NC(=O)[C@H](CCCCN)NC(=O)[C@H](Cc1c[nH]c2ccccc12)NC(=O)[C@H](Cc1c[nH]c2ccccc12)NC(=O)[C@H](CCCNC(=N)N)NC(=O)[C@@H](N)CCCCN)C(N)=O` gave an MIC of 10 µM (≈ 14.9 µg/mL) (Mycobacterium bovis; isoniazid-resistant mutant, broth with pyruvate; 48 h, 37 °C).
`Nc1c(C(=O)Nc2cc(Cl)ccc2Cl)sc2nc(-c3cccs3)ccc12` gave an MIC50 of 20 µM (≈ 8.41 µg/mL) (Bacillus anthracis; Sterne).
`NC12CC3CC(CC(C3)C1)C2` gave an EC50 of under 1000 nM (Influenza A virus; viral replication; MDCK, A/Swine/Minnesota/34-0801/2011 (H1N2)).

Some of these lines once more:
`Nc1c(C(=O)Nc2cc(Cl)ccc2Cl)sc2nc(-c3cccs3)ccc12` gave an MIC50 of 20 µM (≈ 8.41 µg/mL) (Bacillus anthracis; Sterne).
`NC12CC3CC(CC(C3)C1)C2` gave an EC50 of under 1000 nM (Influenza A virus; viral replication; MDCK, A/Swine/Minnesota/34-0801/2011 (H1N2)).
